# Experimental data from different studies.
# A part holds a random share of what one study measured. Several values in a cell are separate wells, animals, samples, runs or records. Substitutions count along the parent as printed.

# Block 1
# Target: Interferon regulatory factor 5, full length, phosphomimetic (IRF5, Homo sapiens, UniProt Q13568-2, residues 1-514, K96S/S451D/S453D/S456D/S462D)
# Method: protein-binding microarray
# Molecule type: double-stranded DNA, one strand shown
# Matrix: in vitro
# Concentration: 250 nM
# Notes: 60-bp whole probe
# With: salmon DNA 0.4 mg/ml
# Relative to: random background probes
# Reading: higher = stronger binding
# All sequences stand within: GCCTAGCAC … GTCTTGATTCGCTTGACGCTGCTG
Strand,log fluorescence
GACGGTTTACTACTGCTGACGTGCTAG,-0.0279 z-score
GACGGACTGGGGACTGCGGACGTGCTA,-0.721 z-score
CAGAAGCCAGAGAGGACAGGGTGCTAG,-0.453 z-score
TTAGATATCAATATCGATTAGTGCTAG,5.24 z-score
TTAGGACTGGGGATCGGTTAGTGCTAG,-0.0635 z-score
TCATGTGTGTGTTTGTGACTGTGCTAG,-0.132 z-score

# Block 2
# Target: Histone acetyltransferase KAT6A, winged helix 2, GST fusion (KAT6A, Homo sapiens, UniProt Q92794, residues 85-181)
# Method: protein binding microarray
# Molecule type: double-stranded DNA, one strand shown
# Matrix: in vitro
# Concentration: not given
# Notes: 8-mer, flanks averaged, mean of 2 arrays, mostly near background
# Relative to: not given
# Reading: higher = stronger binding
# Target sequence (chain): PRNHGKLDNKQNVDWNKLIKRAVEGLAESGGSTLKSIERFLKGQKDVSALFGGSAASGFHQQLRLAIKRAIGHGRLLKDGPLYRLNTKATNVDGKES
Strand,E-score
GCCTAGAA,-0.0673
CCTGTATC,-0.00858
GACTAATC,0.14
ATGCGTAG,-0.0617
GAGACAGC,0.0167
CACTATAG,-0.14
AGAACCCC,-0.297
ACGCGGCG,0.167
GCAGAGCA,0.196
ACAGCTCT,-0.181

# Block 3
# Target: CCNB2, cyclin fold, Cln2 fusion (human)
# Method: yeast growth competition, sequencing
# Matrix: yeast
# Notes: weak parent motif
# Relative to: not given
# Reading: higher = stronger binding
# Starting sequence: CDC6 docking peptide (human); TLKGRRLVFDNQL; partner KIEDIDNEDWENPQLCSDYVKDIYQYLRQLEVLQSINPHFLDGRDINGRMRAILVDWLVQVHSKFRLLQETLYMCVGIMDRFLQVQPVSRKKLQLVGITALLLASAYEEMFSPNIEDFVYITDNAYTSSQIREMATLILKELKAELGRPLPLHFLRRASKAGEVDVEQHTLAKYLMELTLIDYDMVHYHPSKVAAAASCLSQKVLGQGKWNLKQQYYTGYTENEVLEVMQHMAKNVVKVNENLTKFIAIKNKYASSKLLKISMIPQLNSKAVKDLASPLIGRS
Substitution,normalised enrichment score
R5D,-0.699
L7S,0.95
T1C,0.211
L7P,0.0358
K3W,-0.0391
Q12V,0.516
V8Y,0.306

# Further values, each from its own experiment
Molecule,target,assay,system,conditions,how to read,quantity,result
"PhoQ, residues 284 288 289 292 302 303 AGHLVA","PhoP, residues 12 14 15 18 19 LWHSL (Escherichia coli, UniProt P23836)","Sort-seq, measured: YFP reporter",E. coli,"PhoQ-PhoP variant library, with: 10 µM Mg2+","relative to: high Mg2+ state, higher = stronger signaling",fold induction,5.61 and 2.67

# A few entries again (block 2):
Strand,E-score
GCAGAGCA,0.196
ACAGCTCT,-0.181
GACTAATC,0.14
AGAACCCC,-0.297
